Results from different studies.
Compare with care: the assays were run in different laboratories.
Partner: itself
B1: RBKS K54A (Homo sapiens, UniProt Q9H477); sequence looked up; chain MAASGEPQRQWQEEVAAVVVVGSCMTDLVSLTSRLPKTGETIHGHKFFIGFGGAGANQCVQAARLGAMTSMVCKVGKDSFGNDYIENLKQNDISTEFTYQTKDAATGTASIIVNNEGQNIIVIVAGANLLLNTEDLRAAANVISRAKVMVCQLEITPATSLEALTMARRSGVKTLFNPAPAIADLDPQFYTLSDVFCCNESEAEILTGLTVGSAADAGEAALVLLKRGCQVVIITLGAEGCVVLSQTEPEPKHIPTEKVKAVDTTGAGDSFVGALAFYLAYYPNLSLEDMLNRSNFIAAVSVQAAGTQSSYPYKKDLPLTLF
B2: BEX3 (Homo sapiens, UniProt Q00994); sequence looked up; chain MANIHQENEEMEQPMQNGEEDRPLGGGEGHQPAGNRRGQARRLAPNFRWAIPNRQINDGMGGDGDDMEIFMEEMREIRRKLRELQLRNCLRILMGELSNHHDHHDEFCLMP
B3: RPRD1B (Homo sapiens, UniProt Q9NQG5); chain MSSFSESALEKKLSELSNSQQSVQTLSLWLIHHRKHAGPIVSVWHRELRKAKSNRKLTFLYLANDVIQNSKRKGPEFTREFESVLVDAFSHVAREADEGCKKPLERLLNIWQERSVYGGEFIQQLKLSMEDSKSPPPKATEEKKSLKRTFQQIQEEEDDDYPGSYSPQDPSAGPLLTEELIKALQDLENAASGDATVRQKIASLPQEVQDVSLLEKITDKEAAERLSKTVDEACLLLAEYNGRLAAELEDRRQLARMLVEYTQNQKDVLSEKEKKLEEYKQKLARVTQVRKELKSHIQSLPDLSLLPNVTGGLAPLPSAGDLFSTD
B4: lacI 1-360 D149C (Escherichia coli, UniProt P03023); chain MKPVTLYDVAEYAGVSYQTVSRVVNQASHVSAKTREKVEAAMAELNYIPNRVAQQLAGKQSLLIGVATSSLALHAPSQIVAAIKSRADQLGASVVVSMVERSGVEACKAAVHNLLAQRVSGLIINYPLDDQDAIAVEAACTNVPALFLCVSDQTPINSIIFSHEDGTRLGVEHLVALGHQQIALLAGPLSSVSARLRLAGWHKYLTRNQIQPIAEREGDWSAMSGFQQTMQMLNEGIVPTAMLVANDQMALGAMRAITESGLRVGADISVVGYDDTEDSSCYIPPLTTIKQDFRLLGQTSVDRLLQLSQGQAVKGNQLLPVSLVKRKTTLAPNTQTASPRALADSLMQLARQVSRLESGQ
B5: Sting1 138-378 (Mus musculus, UniProt Q3TBT3); sequence looked up; chain LTPAEVSAVCEEKKLNVAHGLAWSYYIGYLRLILPGLQARIRMFNQLHNNMLSGAGSRRLYILFPLDCGVPDNLSVVDPNIRFRDMLPQQNIDRAGIKNRVYSNSVYEILENGQPAGVCILEYATPLQTLFAMSQDAKAGFSREDRLEQAKLFCRTLEEILEDVPESRNNCRLIVYQEPTDGNSFSLSQEVLRHIRQEEKEEVTMNAPMTSVAPPPSVLSQEPRLLISGMDQPLPLRTDLI
B6: PCK1 (Arabidopsis thaliana, UniProt Q9T074); pT66/pS62; sequence looked up; chain MSAGNGNATNGDGGFSFPKGPVMPKITTGAAKRGSGVCHDDSGPTVNATTIDELHSLQKKRSAPTTPINQNAAAAFAAVSEEERQKIQLQSISASLASLTRESGPKVVRGDPAEKKTDGSTTPAYAHGQHHSIFSPATGAVSDSSLKFTHVLYNLSPAELYEQAIKYEKGSFITSNGALATLSGAKTGRAPRDKRVVRDATTEDELWWGKGSPNIEMDEHTFMVNRERAVDYLNSLEKVFVNDQYLNWDPENRIKVRIVSARAYHSLFMHNMCIRPTQEELESFGTPDFTIYNAGQFPCNRYTHYMTSSTSVDLNLARREMVILGTQYAGEMKKGLFSVMHYLMPKRRILSLHSGCNMGKDGDVALFFGLSGTGKTTLSTDHNRYLIGDDEHCWTETGVSNIEGGCYAKCVDLSREKEPDIWNAIKFGTVLENVVFDEHTREVDYSDKSVTENTRAAYPIEFIPNAKIPCVGPHPTNVILLACDAFGVLPPVSKLNLAQTMYHFISGYTALVAGTEDGIKEPTATFSACFGAAFIMLHPTKYAAMLAEKMKSQGATGWLVNTGWSGGSYGVGNRIKLAYTRKIIDAIHSGSLLKANYKKTEIFGFEIPTEIEGIPSEILDPVNSWSDKKAHKDTLVKLGGLFKKNFEVFANHKIGVDGKLTEEILAAGPIF
B7: SERPINA1 25-347 C232S (Homo sapiens, UniProt P01009); sequence looked up; chain EDPQGDAAQKTDTSHHDQDHPTFNKITPNLAEFAFSLYRQLAHQSNSTNIFFSPVSIATAFAMLSLGTKADTHDEILEGLNFNLTEIPEAQIHEGFQELLRTLNQPDSQLQLTTGNGLFLSEGLKLVDKFLEDVKKLYHSEAFTVNFGDTEEAKKQINDYVEKGTQGKIVDLVKELDRDTVFALVNYIFFKGKWERPFEVKDTEEEDFHVDQVTTVKVPMMKRLGMFNIQHSKKLSSWVLLMKYLGNATAIFFLPDEGKLQHLENELTHDIITKFLENEDRRSASLHLPKLSITGTYDLKSVLGQLGITKVFSNGADLSGVTE
B8: clcA C85A/H234C (Escherichia coli, UniProt P37019); chain MKTDTPSLETPQAARLRRRQLIRQLLERDKTPLAILFMAAVVGTLVGLAAVAFDKGVAWLQNQRMGALVHTADNYPLLLTVAFLASAVLAMFGYFLVRKYAPEAGGSGIPEIEGALEDQRPVRWWRVLPVKFFGGLGTLGGGMVLGREGPTVQIGGNIGRMVLDIFRLKGDEARHTLLATGAAAGLAAAFNAPLAGILFIIEEMRPQFRYTLISIKAVFIGVIMSTIMYRIFNCEVALIDVGKLSDAPLNTLWLYLILGIIFGIFGPIFNKWVLGMQDLLHRVHGGNITKWVLMGGAIGGLCGLLGFVAPATSGGGFNLIPIATAGNFSMGMLVFIFVARVITTLLCFSSGAPGGIFAPMLALGTVLGTAFGMVAVELFPQYHLEAGTFAIAGMGALLAASIRAPLTGIILVLEMTDNYQLILPMIITGLGATLLAQFTGGKPLYSAILARTLAKQEAEQLARSKAASASENT
B9: CRYAB S59D (Homo sapiens, UniProt P02511); chain MDIAIHHPWIRRPFFPFHSPSRLFDQFFGEHLLESDLFPTSTSLSPFYLRPPSFLRAPDWFDTGLSEMRLEKDRFSVNLDVKHFSPEELKVKVLGDVIEVHGKHEERQDEHGFISREFHRKYRIPADVDPLTITSSLSSDGVLTVNGPRKQVSGPERTIPITREEKPAVTAAPKK
B10: patZ (Escherichia coli, UniProt P76594); sequence looked up; chain MSQRGLEALLRPKSIAVIGASMKPNRAGYLMMRNLLAGGFNGPVLPVTPAWKAVLGVLAWPDIASLPFTPDLAVLCTNASRNLALLEELGEKGCKTCIILSAPASQHEDLRACALRHNMRLLGPNSLGLLAPWQGLNASFSPVPIKRGKLAFISQSAAVSNTILDWAQQRKMGFSYFIALGDSLDIDVDELLDYLARDSKTSAILLYLEQLSDARRFVSAARSASRNKPILVIKSGRSPAAQRLLNTTAGMDPAWDAAIQRAGLLRVQDTHELFSAVETLSHMRPLRGDRLMIISNGAAPAALALDALWSRNGKLATLSEETCQKLRDALPEHVAISNPLDLRDDASSEHYIKTLDILLHSQDFDALMVIHSPSAAAPATESAQVLIEAVKHHPRSKYVSLLTNWCGEHSSQEARRLFSEAGLPTYRTPEGTITAFMHMVEYRRNQKQLRETPALPSNLTSNTAEAHLLLQQAIAEGATSLDTHEVQPILQAYGMNTLPTWIASDSTEAVHIAEQIGYPVALKLRSPDIPHKSEVQGVMLYLRTANEVQQAANAIFDRVKMAWPQARVHGLLVQSMANRAGAQELRVVVEHDPVFGPLIMLGEGGVEWRPEDQAVVALPPLNMNLARYLVIQGIKSKKIRARSALRPLDVAGLSQLLVQVSNLIVDCPEIQRLDIHPLLASGSEFTALDVTLDISPFEGDNESRLAVRPYPHQLEEWVELKNGERCLFRPILPEDEPQLQQFISRVTKEDLYYRYFSEINEFTHEDLANMTQIDYDREMAFVAVRRIDQTEEILGVTRAISDPDNIDAEFAVLVRSDLKGLGLGRRLMEKLITYTRDHGLQRLNGITMPNNRGMVALARKLGFNVDIQLEEGIVGLTLNLAQREES
B11: dlg1 1-97 (Drosophila melanogaster, UniProt P31007); sequence looked up; chain MPVKKQEAHRALELLEDYHARLSEPQDRALRIAIERVIRIFKSRLFQALLDIQEFYELTLLDDSKSIQQKTAETLQIATKWEKDGQAVKIADFIKSS
B12: ADAR1 127-end 127-1226 Y1112F (human, UniProt P55265); sequence looked up; chain SSHFQELSIYQDQEQRILKFLEELGEGKATTAHDLSGKLGTPKKEINRVLYSLAKKGKLQKEAGTPPLWKIAVSTQAWNQHSGVVRPDGHSQGAPNSDPSLEPEDRNSTSVSEDLLEPFIAVSAQAWNQHSGVVRPDSHSQGSPNSDPGLEPEDSNSTSALEDPLEFLDMAEIKEKICDYLFNVSDSSALNLAKNIGLTKARDINAVLIDMERQGDVYRQGTTPPIWHLTDKKRERMQIKRNTNSVPETAPAAIPETKRNAEFLTCNIPTSNASNNMVTTEKVENGQEPVIKLENRQEARPEPARLKPPVHYNGPSKAGYVDFENGQWATDDIPDDLNSIRAAPGEFRAIMEMPSFYSHGLPRCSPYKKLTECQLKNPISGLLEYAQFASQTCEFNMIEQSGPPHEPRFKFQVVINGREFPPAEAGSKKVAKQDAAMKAMTILLEEAKAKDSGKSEESSHYSTEKESEKTAESQTPTPSATSFFSGKSPVTTLLECMHKLGNSCEFRLLSKEGPAHEPKFQYCVAVGAQTFPSVSAPSKKVAKQMAAEEAMKALHGEATNSMASDNQPEGMISESLDNLESMMPNKVRKIGELVRYLNTNPVGGLLEYARSHGFAAEFKLVDQSGPPHEPKFVYQAKVGGRWFPAVCAHSKKQGKQEAADAALRVLIGENEKAERMGFTEVTPVTGASLRRTMLLLSRSPEAQPKTLPLTGSTFHDQIAMLSHRCFNTLTNSFQPSLLGRKILAAIIMKKDSEDMGVVVSLGTGNRCVKGDSLSLKGETVNDCHAEIISRRGFIRFLYSELMKYNSQTAKDSIFEPAKGGEKLQIKKTVSFHLYISTAPCGDGALFDKSCSDRAMESTESRHYPVFENPKQGKLRTKVENGEGTIPVESSDIVPTWDGIRLGERLRTMSCSDKILRWNVLGLQGALLTHFLQPIYLKSVTLGYLFSQGHLTRAICCRVTRDGSAFEDGLRHPFIVNHPKVGRVSIFDSKRQSGKTKETSVNWCLADGYDLEILDGTRGTVDGPRNELSRVSKKNIFLLFKKLCSFRYRRDLLRLSYGEAKKAARDYETAKNYFKKGLKDMGYGNWISKPQEEKNFYLCPV
B13: protein 1-735 (UniProt C7Z7K1); chain MSNLKDFSQPGSGQESNFGVDFVIHYKVPAAERDEAEAGFVQLIRALTTVGLATEVRHGENESLLVFVKVASPDLFAKQVYRARLGDWLHGVRVSAPHNDIAQALQDEPVVEAERLRLIYLMITKPHNEGGAGVTPTNAKWKHVESIFPLHSHSFNKEWIKKWSSKYTLEQTDIDNIRDKFGESVAFYFAFLRSYFRFLVIPSAFGFGAWLLLGQFSYLYALLCGLWSVVFFEYWKKQEVDLAVQWGVRGVSSIQQSRPEFEWEHEAEDPITGEPVKVYPPMKRVKTQLLQIPFALACVVALGALIVTCNSLEVFINEVYSGPGKQYLGFLPTIFLVIGTPTISGVLMGAAEKLNAMENYATVDAHDAALIQKQFVLNFMTSYMALFFTAFVYIPFGHILHPFLNFWRATAQTLTFSEKELPTREFQINPARISNQMFYFTVTAQIVNFATEVVVPYIKQQAFQKAKQLKSGSKVQEDHEEEAEFLQRVREECTLEEYDVSGDYREMVMQFGYVAMFSVAWPLAACCFLVNNWVELRSDALKIAISSRRPIPWRTDSIGPWLTALSFLSWLGSITSSAIVYLCSNSKNGTQGEASPLKAWGLLLSILFAEHFYLVVQLAVRFVLSKLDSPGLQKERKERFQTKKRLLQENLGQDAAEEAAAPGIEHSEKITREALEEEARQASIRGHGTPEEMFWQRQRGMQETIEIGRRMIEQQLAAGKNGKKSAPAVPSEKAS

B1 (RBKS K54A)  subunits per oligomer (mass photometry): 2
B2 (BEX3)  subunits per oligomer (SDS-PAGE): 2
B3 (RPRD1B)  subunits per oligomer (AUC; 4 °C): 2
B4 (lacI 1-360 D149C)  subunits per oligomer (SEC): 4
B5 (Sting1 138-378)  subunits per oligomer (SEC): 4
B6 (PCK1)  subunits per oligomer (SEC): 12
B7 (SERPINA1 25-347 C232S)  subunits per oligomer (AUC; velocity sedimentation): 2
B8 (clcA C85A/H234C)  subunits per oligomer (single-molecule photobleaching): 2
B9 (CRYAB S59D)  subunits per oligomer (SEC-MALS): 22 subunits
B10 (patZ)  subunits per oligomer (SEC): 4
B11 (dlg1 1-97)  subunits per oligomer (SEC): 2
B12 (ADAR1 127-end 127-1226 Y1112F)  subunits per oligomer (SEC): 2
B13 (protein 1-735)  subunits per oligomer (cryo-EM): 2

A few entries again:
B6 (PCK1)  subunits per oligomer (SEC): 12
